Experimental data pooled from the literature.
Each numbered part is a random draw from the data of one study; scales do not carry over between parts.

Set 1 — method: protein-binding microarray; form: double-stranded DNA, one strand shown; sample: in vitro; tested at: 250 nM; notes: 60-bp whole probe; added: salmon DNA 0.4 mg/ml; baseline: random background probes; reading: higher = stronger binding; measurement: log fluorescence; all sequences stand within: GCCTAGCAC … GTCTTGATTCGCTTGACGCTGCTG
Target: Interferon regulatory factor 7, full length, phosphomimetic (IRF7, Homo sapiens, UniProt Q92985, residues 1-503, S101K/S471D/S472D/S475D/S476D/S477D/S483D/S484D/S487D)
Target sequence (chain): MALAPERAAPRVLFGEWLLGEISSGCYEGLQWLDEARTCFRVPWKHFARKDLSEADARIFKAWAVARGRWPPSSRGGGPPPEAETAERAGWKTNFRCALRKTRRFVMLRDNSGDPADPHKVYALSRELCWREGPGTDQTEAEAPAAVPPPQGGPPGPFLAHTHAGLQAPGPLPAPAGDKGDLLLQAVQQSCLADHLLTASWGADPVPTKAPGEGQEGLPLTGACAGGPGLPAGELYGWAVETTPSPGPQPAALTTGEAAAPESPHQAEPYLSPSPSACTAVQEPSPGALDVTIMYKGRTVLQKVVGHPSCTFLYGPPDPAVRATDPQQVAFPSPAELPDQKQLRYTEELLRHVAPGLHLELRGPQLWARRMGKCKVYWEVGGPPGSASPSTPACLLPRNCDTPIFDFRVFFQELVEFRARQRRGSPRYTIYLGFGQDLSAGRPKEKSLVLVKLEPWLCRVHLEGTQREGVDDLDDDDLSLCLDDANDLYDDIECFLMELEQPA
GACCATTCCAGTTTCGAGACGTGCTAG: 5.04 z-score
TCATTGATGGCTCTCTGACTGTGCTAG: -0.149 z-score
TTAAGTCTCGGACTGGGTTAGTGCTAG: 0.441 z-score
GACGGACTGGGGACTGGGTACGTGCTA: -0.544 z-score
TTAGGTCTCTTACTGCTTTAGTGCTAG: 0.228 z-score

Further values, each from its own experiment
CBF1 full length, His-tagged: Centromere-binding protein 1, full length, His-tagged (CBF1, Saccharomyces cerevisiae, UniProt P17106, residues 1-351)
UniProt P17106, sequence (whole entry, looked up): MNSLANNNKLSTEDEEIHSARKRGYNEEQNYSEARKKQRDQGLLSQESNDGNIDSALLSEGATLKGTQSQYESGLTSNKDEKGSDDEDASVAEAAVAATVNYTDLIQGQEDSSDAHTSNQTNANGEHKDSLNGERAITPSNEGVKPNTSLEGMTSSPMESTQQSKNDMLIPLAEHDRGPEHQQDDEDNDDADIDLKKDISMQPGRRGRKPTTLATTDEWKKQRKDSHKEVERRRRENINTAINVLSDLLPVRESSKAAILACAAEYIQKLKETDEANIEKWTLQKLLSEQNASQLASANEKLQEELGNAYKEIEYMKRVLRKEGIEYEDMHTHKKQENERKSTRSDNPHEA
KAT6A both winged helices, GST fusion: Histone acetyltransferase KAT6A, both winged helices, GST fusion (KAT6A, Homo sapiens, UniProt Q92794, residues 1-181)
CATACCCAACCTTGTCCGGTGGGTGAAGATATTTGTGTCTTGATTCGCTTGACGCTGCTG  fluorescence intensity (CBF1 full length, His-tagged; competition protein-binding microarray; double-stranded DNA, one strand shown, in vitro; 2 µM, whole 60-bp probe, lowest competitor level, added: Pho4 competitor, 0.05 µM; higher = stronger binding): 61.8 a.u.
PhoQ, residues 284 288 289 292 302 303 TLMATV  fold induction (PhoP, residues 12 14 15 18 19 LYHSL (Escherichia coli, UniProt P23836); Sort-seq, measured: YFP reporter; E. coli; PhoQ-PhoP variant library, added: 10 µM Mg2+; baseline: high Mg2+ state, higher = stronger signaling): 1.95
CTAGCTGTAGCTATCGTCGTGATCGCTTTTACTTTCGTCTTGATTCGCTTGACGCTGCTG  fluorescence intensity (Centromere-binding protein 1, full length, N-terminal tag (CBF1, Saccharomyces cerevisiae, UniProt P17106, residues 1-351); protein-binding microarray; double-stranded DNA, one strand shown, in vitro; 0.8 µM, whole 60-bp probe, no competitor; higher = stronger binding): 848 a.u.
AGAAACTG  E-score (KAT6A both winged helices, GST fusion; protein binding microarray; double-stranded DNA, one strand shown, in vitro; not given, 8-mer, flanks averaged, mean of 2 arrays, mostly near background; baseline: not given, higher = stronger binding): -0.0162
TTACTGCGATTATCGCACGGGTGTGGAGGTGTCGCTGTCTTGATTCGCTTGACGCTGCTG  fluorescence intensity (CBF1 full length, His-tagged; competition protein-binding microarray; double-stranded DNA, one strand shown, in vitro; 2 µM, whole 60-bp probe, lowest competitor level, added: Pho4 competitor, 0.05 µM; higher = stronger binding): 66.9 a.u.
CTAACTTA  E-score (KAT6A both winged helices, GST fusion; protein binding microarray; double-stranded DNA, one strand shown, in vitro; not given, 8-mer, flanks averaged, mean of 2 arrays, mostly near background; baseline: not given, higher = stronger binding): -0.0731

Excerpt of the above (further values, each from its own experiment):
PhoQ, residues 284 288 289 292 302 303 TLMATV  fold induction (PhoP, residues 12 14 15 18 19 LYHSL (Escherichia coli, UniProt P23836); Sort-seq, measured: YFP reporter; E. coli; PhoQ-PhoP variant library, added: 10 µM Mg2+; baseline: high Mg2+ state, higher = stronger signaling): 1.95
